Measured values of several laboratories.
Every numbered part comes from another study and shows a few of its results, in no order. Values joined by “and” are separate records of one study, mostly repeats; a detail may differ. Positions count from the first letter of the parent shown.
Chain of UniProt P42336 (whole entry, unmodified, looked up): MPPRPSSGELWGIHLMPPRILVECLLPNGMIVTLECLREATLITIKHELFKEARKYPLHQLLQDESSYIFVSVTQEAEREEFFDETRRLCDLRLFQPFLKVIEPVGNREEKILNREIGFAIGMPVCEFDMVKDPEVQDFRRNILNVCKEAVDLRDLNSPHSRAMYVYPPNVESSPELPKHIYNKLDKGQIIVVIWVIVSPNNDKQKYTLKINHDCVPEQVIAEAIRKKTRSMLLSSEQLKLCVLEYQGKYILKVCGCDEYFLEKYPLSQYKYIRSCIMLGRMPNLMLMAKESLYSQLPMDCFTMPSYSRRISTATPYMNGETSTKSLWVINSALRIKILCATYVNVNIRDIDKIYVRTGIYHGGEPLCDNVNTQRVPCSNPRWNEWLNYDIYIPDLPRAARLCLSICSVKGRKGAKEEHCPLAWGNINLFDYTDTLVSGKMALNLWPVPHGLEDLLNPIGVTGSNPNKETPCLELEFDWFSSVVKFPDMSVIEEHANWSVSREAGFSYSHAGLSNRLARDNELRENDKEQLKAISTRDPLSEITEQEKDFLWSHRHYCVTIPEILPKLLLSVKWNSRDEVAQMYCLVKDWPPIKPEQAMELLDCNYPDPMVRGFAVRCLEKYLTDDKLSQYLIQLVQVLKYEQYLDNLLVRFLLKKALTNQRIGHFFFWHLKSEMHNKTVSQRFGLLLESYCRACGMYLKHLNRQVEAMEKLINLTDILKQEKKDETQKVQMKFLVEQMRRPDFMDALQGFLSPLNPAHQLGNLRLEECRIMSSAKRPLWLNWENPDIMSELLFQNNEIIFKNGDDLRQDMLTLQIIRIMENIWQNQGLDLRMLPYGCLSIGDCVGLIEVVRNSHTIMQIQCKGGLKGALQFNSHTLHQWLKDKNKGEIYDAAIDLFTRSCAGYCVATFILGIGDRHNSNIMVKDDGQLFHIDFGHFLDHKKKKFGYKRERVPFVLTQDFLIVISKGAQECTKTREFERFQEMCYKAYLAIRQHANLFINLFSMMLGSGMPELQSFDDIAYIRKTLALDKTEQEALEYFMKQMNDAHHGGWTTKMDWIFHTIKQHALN
Chain of UniProt Q96PN8 (whole entry, looked up): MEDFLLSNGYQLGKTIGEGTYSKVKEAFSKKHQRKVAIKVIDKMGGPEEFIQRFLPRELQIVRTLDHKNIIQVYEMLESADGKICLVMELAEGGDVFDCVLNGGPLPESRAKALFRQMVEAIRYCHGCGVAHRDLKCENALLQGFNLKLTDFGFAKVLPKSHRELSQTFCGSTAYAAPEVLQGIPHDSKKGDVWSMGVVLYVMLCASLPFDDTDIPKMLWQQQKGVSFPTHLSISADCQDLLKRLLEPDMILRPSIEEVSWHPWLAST
Chain of UniProt P08069 (whole entry, looked up): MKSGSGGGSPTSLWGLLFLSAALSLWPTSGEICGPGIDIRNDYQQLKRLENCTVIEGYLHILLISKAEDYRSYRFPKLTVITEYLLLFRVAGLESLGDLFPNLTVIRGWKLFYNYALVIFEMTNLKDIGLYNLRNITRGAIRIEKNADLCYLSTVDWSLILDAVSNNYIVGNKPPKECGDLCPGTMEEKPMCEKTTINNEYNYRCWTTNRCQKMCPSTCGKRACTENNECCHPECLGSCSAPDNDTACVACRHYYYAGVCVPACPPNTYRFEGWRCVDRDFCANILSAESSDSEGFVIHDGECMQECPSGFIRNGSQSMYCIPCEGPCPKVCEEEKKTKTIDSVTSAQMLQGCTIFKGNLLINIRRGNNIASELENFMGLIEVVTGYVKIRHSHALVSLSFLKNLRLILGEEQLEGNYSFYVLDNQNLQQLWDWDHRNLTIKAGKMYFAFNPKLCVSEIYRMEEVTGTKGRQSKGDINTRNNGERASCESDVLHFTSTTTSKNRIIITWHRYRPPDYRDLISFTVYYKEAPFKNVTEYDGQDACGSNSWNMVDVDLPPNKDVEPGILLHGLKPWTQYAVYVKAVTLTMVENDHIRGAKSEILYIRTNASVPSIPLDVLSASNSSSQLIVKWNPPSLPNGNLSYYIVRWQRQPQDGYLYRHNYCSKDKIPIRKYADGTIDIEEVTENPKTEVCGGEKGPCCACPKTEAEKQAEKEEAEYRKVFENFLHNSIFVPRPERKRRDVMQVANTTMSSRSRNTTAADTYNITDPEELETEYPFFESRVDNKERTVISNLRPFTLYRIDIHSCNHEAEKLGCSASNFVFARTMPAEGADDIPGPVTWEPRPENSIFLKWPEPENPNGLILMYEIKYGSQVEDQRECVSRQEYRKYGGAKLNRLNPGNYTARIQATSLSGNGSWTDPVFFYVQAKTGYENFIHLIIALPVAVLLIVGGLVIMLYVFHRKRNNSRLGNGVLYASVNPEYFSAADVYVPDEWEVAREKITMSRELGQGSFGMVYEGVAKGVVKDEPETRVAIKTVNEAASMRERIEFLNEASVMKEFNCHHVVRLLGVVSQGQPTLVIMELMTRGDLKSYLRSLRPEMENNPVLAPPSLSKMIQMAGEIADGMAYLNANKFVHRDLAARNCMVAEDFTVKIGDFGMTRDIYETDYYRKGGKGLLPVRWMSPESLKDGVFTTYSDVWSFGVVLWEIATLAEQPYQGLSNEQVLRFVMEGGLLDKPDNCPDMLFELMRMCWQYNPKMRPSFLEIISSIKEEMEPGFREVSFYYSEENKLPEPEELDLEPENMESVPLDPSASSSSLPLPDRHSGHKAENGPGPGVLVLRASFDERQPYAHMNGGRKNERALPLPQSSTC
Chain of UniProt P22607 (whole entry, unmodified, looked up): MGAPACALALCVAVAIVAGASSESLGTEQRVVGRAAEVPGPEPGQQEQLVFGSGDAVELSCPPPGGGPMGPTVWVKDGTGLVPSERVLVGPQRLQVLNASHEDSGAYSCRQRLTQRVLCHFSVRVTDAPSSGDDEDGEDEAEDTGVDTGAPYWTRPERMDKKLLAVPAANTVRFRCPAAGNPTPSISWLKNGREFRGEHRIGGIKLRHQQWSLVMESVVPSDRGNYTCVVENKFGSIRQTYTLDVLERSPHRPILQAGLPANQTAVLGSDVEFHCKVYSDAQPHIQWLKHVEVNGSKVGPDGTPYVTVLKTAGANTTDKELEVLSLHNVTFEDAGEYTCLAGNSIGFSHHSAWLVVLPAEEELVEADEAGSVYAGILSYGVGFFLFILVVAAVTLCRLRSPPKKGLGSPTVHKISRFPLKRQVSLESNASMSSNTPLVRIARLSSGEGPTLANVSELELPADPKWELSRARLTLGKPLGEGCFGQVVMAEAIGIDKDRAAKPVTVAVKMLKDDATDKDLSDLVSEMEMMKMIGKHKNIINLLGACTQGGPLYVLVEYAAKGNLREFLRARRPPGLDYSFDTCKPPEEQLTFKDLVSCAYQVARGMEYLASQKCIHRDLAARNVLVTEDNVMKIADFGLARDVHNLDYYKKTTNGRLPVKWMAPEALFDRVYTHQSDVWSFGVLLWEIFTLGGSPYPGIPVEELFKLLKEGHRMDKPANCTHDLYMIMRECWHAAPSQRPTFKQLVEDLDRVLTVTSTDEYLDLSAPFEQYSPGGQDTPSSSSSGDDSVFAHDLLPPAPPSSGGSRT
Chain of UniProt P68400 (whole entry, looked up): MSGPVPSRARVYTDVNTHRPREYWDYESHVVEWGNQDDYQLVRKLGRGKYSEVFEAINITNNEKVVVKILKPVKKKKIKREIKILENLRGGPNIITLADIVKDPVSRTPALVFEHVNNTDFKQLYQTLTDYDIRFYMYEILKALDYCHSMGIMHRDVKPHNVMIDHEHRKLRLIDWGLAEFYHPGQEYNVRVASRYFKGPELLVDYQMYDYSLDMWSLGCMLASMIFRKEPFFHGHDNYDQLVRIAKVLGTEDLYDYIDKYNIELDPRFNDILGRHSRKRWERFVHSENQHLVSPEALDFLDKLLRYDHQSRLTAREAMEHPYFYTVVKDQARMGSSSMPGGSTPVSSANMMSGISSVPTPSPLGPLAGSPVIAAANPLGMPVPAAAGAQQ
Chain of UniProt P78356 (whole entry, looked up): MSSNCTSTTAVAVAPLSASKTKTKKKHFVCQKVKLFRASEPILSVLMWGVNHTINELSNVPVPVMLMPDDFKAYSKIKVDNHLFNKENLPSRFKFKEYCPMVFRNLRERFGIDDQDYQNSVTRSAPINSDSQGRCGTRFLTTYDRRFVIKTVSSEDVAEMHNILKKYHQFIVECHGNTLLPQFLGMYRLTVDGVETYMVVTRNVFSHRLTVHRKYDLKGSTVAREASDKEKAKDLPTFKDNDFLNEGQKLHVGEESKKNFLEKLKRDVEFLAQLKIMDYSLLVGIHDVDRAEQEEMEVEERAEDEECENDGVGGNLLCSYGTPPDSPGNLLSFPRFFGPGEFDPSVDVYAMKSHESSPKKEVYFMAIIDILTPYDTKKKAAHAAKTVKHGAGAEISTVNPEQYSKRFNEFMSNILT

Sample 1
Species: mouse
Sample: microsomes or S9
Tested at: 2 µM
Time: 0.5 h
Compound | remaining compound
O=c1c2c(Cl)cccc2nc([C@@H]2CCCN2)n1-c1ccccc1 | > 100%
OC(c1ccccc1)(c1ccccc1)C1CCCN1 (centres unmarked) | 58.2%
N#Cc1cccc(N2C[C@@H](c3cccc(F)c3F)[C@@H]3[C@H]2C2CCN3CC2)n1 | 28%
NC1=NC(c2ccccc2)(c2ccccc2)C(=O)N1 | 88.7%

Sample 2
Organism: Sarcocystis neurona
Effect on: parasite growth
Tested at: concentration not given
Notes: secondary screen
Compound | inhibition [%]
COc1ccc2[nH]cc(C3=CCNCC3)c2c1.O=C(O)CCC(=O)O | -27.9
C[N+]1(C)CCN(c2ccccc2)CC1.[I-] | -15
COc1ccc(CCN)cc1OC | -10.9
C=C(C)CN1CC[C@]23c4c5ccc(O)c4O[C@H]2c2[nH]c4ccccc4c2C[C@@]3(O)C1C5.Cl.O | -42.1

Sample 3
Target: CCNA1, cyclin fold, Cln2 fusion (human)
Method: yeast growth competition, sequencing
Sample: yeast
Notes: weak parent motif
Reference: not given
Reading: higher = stronger binding
Starting sequence: viral docking peptide; KGVKRKLFAEDSS; partner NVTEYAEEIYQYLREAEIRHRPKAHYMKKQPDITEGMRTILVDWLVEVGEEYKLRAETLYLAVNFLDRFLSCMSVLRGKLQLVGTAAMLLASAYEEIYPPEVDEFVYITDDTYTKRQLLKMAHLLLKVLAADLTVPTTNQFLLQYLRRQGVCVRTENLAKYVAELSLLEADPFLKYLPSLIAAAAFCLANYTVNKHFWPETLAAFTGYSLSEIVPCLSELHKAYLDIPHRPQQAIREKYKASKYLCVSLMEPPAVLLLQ
Variant | normalised enrichment score
K4L | 0.0372
R5L | -0.0805
K4Q | 0.808
F8T | 0.0699
R5I | 0.118
D11H | 0.969
L7H | -0.0176
R5Q | 0.696

Sample 4
Compound: O=C1NC(=O)c2c1c1c3ccccc3n3c1c1c2c2ccccc2n1[C@H]1CC[C@@H]3O1
Effect on: enzyme activity
Action: inhibitor
Tested at: 0.5 µM
Reference: control
target | remaining activity [%]
Tyrosine-protein kinase CSK (CSK, Homo sapiens, UniProt P41240) | 79.7
Protein kinase C gamma type (PRKCG, Homo sapiens, UniProt P05129) | 32.8
SRSF protein kinase 3 (SRPK3, Homo sapiens, UniProt Q9UPE1) | 63.6

Sample 5
Compound: N#CC1(c2ccccn2)CCN(Cc2cc(C(=O)O)c(=O)n3ccccc23)CC1
Effect on: cell-free assay
Method: competition with immobilised ligand
Tested at: 1 µM
target | remaining binding
Serine/threonine-protein kinase DCLK1 (DCLK1, Homo sapiens, UniProt O15075) | 100%
Tyrosine-protein kinase Fer (FER, Homo sapiens, UniProt P16591) | 100%
Insulin-like growth factor 1 receptor (IGF1R, Homo sapiens, UniProt P08069) | 89%
Megakaryocyte-associated tyrosine-protein kinase (MATK, Homo sapiens, UniProt P42679) | 84%
Tyrosine-protein kinase ABL1, phosphorylated (ABL1, Homo sapiens, UniProt P00519, T315I) | 91%
Casein kinase II subunit alpha (CSNK2A1, Homo sapiens, UniProt P68400) | 86%
Ribosomal protein S6 kinase alpha-6, N-terminal kinase domain (RPS6KA6, Homo sapiens, UniProt Q9UK32) | 84%
Dual specificity mitogen-activated protein kinase kinase 7 (MAP2K7, Homo sapiens, UniProt O14733) | 95%
Serine/threonine-protein kinase 36 (STK36, Homo sapiens, UniProt Q9NRP7) | 100%
Fibroblast growth factor receptor 3 (FGFR3, Homo sapiens, UniProt P22607, G697C) | 100%
Phosphatidylinositol 4,5-bisphosphate 3-kinase catalytic subunit alpha isoform (PIK3CA, Homo sapiens, UniProt P42336) | 100%
ALK tyrosine kinase receptor (ALK, Homo sapiens, UniProt Q9UM73) | 100%
RAF proto-oncogene serine/threonine-protein kinase (RAF1, Homo sapiens, UniProt P04049) | 100%
Phosphatidylinositol 5-phosphate 4-kinase type-2 beta (PIP4K2B, Homo sapiens, UniProt P78356) | 100%
Serine/threonine-protein kinase WNK2 (WNK2, Homo sapiens, UniProt Q9Y3S1) | 79%
Glycogen synthase kinase-3 beta (GSK3B, Homo sapiens, UniProt P49841) | 100%
SRSF protein kinase 2 (SRPK2, Homo sapiens, UniProt P78362) | 100%
Calcium/calmodulin-dependent protein kinase type 1B (PNCK, Homo sapiens, UniProt Q6P2M8) | 100%
Ephrin type-A receptor 1 (EPHA1, Homo sapiens, UniProt P21709) | 100%
Tyrosine-protein kinase Fes/Fps (FES, Homo sapiens, UniProt P07332) | 99%
Angiopoietin-1 receptor (TEK, Homo sapiens, UniProt Q02763) | 95%
Phosphatidylinositol 4,5-bisphosphate 3-kinase catalytic subunit alpha isoform (PIK3CA, Homo sapiens, UniProt P42336, H1047L) | 80%
Serine/threonine-protein kinase Nek3 (NEK3, Homo sapiens, UniProt P51956) | 66%
Mitotic checkpoint serine/threonine-protein kinase BUB1 (BUB1, Homo sapiens, UniProt O43683) | 100%
Testis-specific serine/threonine-protein kinase 3 (TSSK3, Homo sapiens, UniProt Q96PN8) | 100%

Sample 6
Cell line: mouse MPNST tumor cells
Method: high-content immunofluorescence imaging
Measured: nuclear SOX9
Tested at: 10 µM
Time: 12 h
Notes: mean of 2 replicates
Reference: DMSO control
Reading: higher = more nuclear SOX9
Structure (SMILES) | nuclear SOX9 intensity
O=C1CSC(c2ccccc2Cl)c2cc(Cl)ccc2N1 (centres unmarked) | 94.5 % of DMSO
CN1CCc2cccc(Cl)c2CC1 | 100 % of DMSO
CC(=O)[C@H]1CC[C@H]2[C@@H]3CC[C@@H]4C[C@H](O)CC[C@]4(C)[C@H]3CC[C@]12C | 103 % of DMSO

Sample 7
Structure (SMILES): CC[C@@H](C)c1nc2cc(Nc3ccnc4ccc(S(=O)(=O)C(C)C)cc34)ccc2s1.Cl
Method: CCK-8
cell line | tested at | added | survival
L929 RIPK3-/- reexpressing RIPK3 K51A | 6.25 µM | zVAD | 92.7% and 86.7% and 104% and 100% and 102%
L929 RIPK3-/- reexpressing RIPK3 K51A | 12.5 µM |  | 95.2% and 87.6% and 110% and 107%
L929 RIPK3-/- reexpressing RIPK3 K51A/R69H | 25 µM | zVAD | 80.9% and 80.5% and 78.1% and 78% and 92.1%
L929 RIPK3-/- reexpressing RIPK3 K51A | 25 µM |  | 64.2% and 66.8% and 108% and 62.8%

Sample 8
Target: Calcium/calmodulin-dependent protein kinase type II subunit alpha (CAMK2A, Homo sapiens, UniProt Q9UQM7)
Chain of UniProt Q9UQM7 (whole entry, looked up): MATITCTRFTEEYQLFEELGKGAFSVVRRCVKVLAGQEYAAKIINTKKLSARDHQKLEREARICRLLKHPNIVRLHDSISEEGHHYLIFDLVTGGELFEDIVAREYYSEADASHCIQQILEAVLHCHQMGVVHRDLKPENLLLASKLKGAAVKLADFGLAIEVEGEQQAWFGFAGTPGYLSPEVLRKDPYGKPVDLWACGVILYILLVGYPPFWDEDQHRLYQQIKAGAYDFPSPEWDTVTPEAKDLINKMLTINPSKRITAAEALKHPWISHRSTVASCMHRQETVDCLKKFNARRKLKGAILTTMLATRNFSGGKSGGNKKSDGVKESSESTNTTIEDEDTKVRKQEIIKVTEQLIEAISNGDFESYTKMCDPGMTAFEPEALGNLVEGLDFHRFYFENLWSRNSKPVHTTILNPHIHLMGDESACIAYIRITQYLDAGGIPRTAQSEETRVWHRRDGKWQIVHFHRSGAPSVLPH
Effect on: enzyme activity
Action: inhibitor
Tested at: 10 µM
SMILES | inhibition
C[C@H](N)[C@H](O)c1ccc(O)c(O)c1 | -7%
CN1CC[C@]23C(=O)C[C@H]4C(=CCO[C@H]5CC(=O)N(c6c(O)cccc62)[C@H]3[C@H]54)C1 | -2%
O=C1C=CC(=O)c2c(O)ccc(O)c21 | -16%
C[C@]12CC[C@H](O)C[C@H]1CC[C@@H]1[C@@H]2[C@H](O)C[C@]2(C)[C@@H](c3ccc(=O)oc3)CC[C@]12O | 3%

Mixed results
Structure (SMILES) | cell line | tested at | time | measurement | result
NC(=O)CN1CCCC1=O | A-375 | 100 µM | 36 h | viability | 120%
